# Experimental data from different studies.
# Every numbered part comes from another study and shows a few of its results, in no order. Positions count from the first letter of the parent shown.

# Series 1 — target: CEBPE, bZIP domain (human); method: DHFR protein complementation; medium: yeast; reference: wild-type JUN-FOS pair; direction: higher = stronger binding
# Setting: single substitutions, most at no-binding floor
# Starting sequence: JUN, bZIP domain (human); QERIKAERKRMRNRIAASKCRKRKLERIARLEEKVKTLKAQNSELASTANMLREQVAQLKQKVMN; partner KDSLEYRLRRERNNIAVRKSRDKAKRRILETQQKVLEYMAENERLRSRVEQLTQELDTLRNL
Variant,binding fitness
T37N,-1.03 natural log
A40K,-1.06 natural log
A40P,-1.46 natural log
E33G,-1.26 natural log
A29V,-1.31 natural log
L52H,-1.49 natural log
I28P,-1.39 natural log
E44K,-1.3 natural log
Q55V,-1.37 natural log
M51Q,-1.07 natural log
E32F,-1.23 natural log
R30D,-0.933 natural log
A57T,-1.15 natural log
L45Y,-1.31 natural log
I28S,-1.31 natural log
A29C,-1.25 natural log
Q41E,-0.953 natural log
S47C,-1.17 natural log
R53D,-1.17 natural log
E44L,-1.31 natural log
S43R,-0.972 natural log
E33P,-1.53 natural log
Q58S,-1.02 natural log
M51E,-1.07 natural log
T48Y,-1.15 natural log

# Series 2 — method: RNA Bind-n-Seq; form: RNA; medium: in vitro; concentration: 200 nM; setting: whole 134-nt RNA, ends assumed; added: 150 mM KCl; reference: input library; direction: higher = stronger binding
# Target: Ras GTPase-activating protein-binding protein 1, full length (G3BP1, Homo sapiens, UniProt Q13283)
# Chain of UniProt Q13283 (whole entry, looked up): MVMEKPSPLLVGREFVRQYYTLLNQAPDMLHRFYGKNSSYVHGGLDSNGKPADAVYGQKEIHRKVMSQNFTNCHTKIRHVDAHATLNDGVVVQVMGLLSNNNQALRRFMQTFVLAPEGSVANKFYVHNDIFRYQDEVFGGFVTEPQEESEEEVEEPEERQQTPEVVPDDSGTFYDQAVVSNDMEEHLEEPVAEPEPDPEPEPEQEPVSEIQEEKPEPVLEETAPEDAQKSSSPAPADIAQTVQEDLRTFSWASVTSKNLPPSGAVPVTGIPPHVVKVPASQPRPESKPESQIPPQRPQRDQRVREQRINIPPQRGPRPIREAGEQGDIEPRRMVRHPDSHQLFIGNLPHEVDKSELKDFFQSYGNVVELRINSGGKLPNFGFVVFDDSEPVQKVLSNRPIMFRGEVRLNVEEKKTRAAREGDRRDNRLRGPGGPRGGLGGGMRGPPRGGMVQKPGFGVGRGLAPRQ
# All sequences stand within: GGGAGUUCUACAGUCCGACGAUC … UGGAAUUCUCGGGUGUCAAGG
Oligonucleotide,log2 enrichment
CUCAAGUCCUGUGCUACACAUCGUAUGUACCGAAUCGGGGAAGGAAGGAAGGGGAAAGUAUUAUGUUACGCCGUUCGGAUCUGCACUUCC,-0.261
GUCCUGUGCUACACAUCGUAUGUACCGAAUCGGGGUUUUUGGGGUUUGGGGAAAGGGGAAAGUAUUAUGUUACGCCGUUCGGAUCUGCAC,0.775
UGGCCCUGGUGGCAUGCGGGGAGGAAGAGAUGGCCUCAUGGAUCGUGGUGGUCCCGGUGGAAUGUUCAGAGGUGGCCGUGGUGGAGACAG,0.135
AGUCCUGUGCUACACAUCGUAUGUACCGAAUCGGAAAAGGGGAAAAGGGAAAAGGGGAAAGUAUUAUGUUACGCCGUUCGGAUCUGCACU,-0.165
UGGGAGGUGGAUUUUGUUUAUUUUUUUAGCUCAUUUCCAGGGGUGGGAAUUUUUUUUUAAUAUGUGUCAUGAAUGAAGUUGUUUUUGAAA,0.242
UGGCCCUGGUGGCAUGCGGGGAGGAAGAGGUGGCCUCAUGUAUCGUGGUGGUCCCGGUGGAAUGUUCAGAGGUGGCCGUGGUGGAGACAG,0.0416
UUUCGGCUACCCCCAGUUCUUCUUUGCCAAAGCGUACACGUGAAGAGGAAGAGGAUAGCACCAUAGAAGCAUCAGACCAAGUCUCUGAUG,-1.49
GUCCUGUGCUACACAUCGUAUGUACCGAAUCGGGUUUUUGGGGUUUUUGGUUUUUGGGAAAGUAUUAUGUUACGCCGUUCGGAUCUGCAC,-0.694
CAAGUCCUGUGCUACACAUCGUAUGUACCGAAUCGGGAAAAGGAAAAGGAAAAGGAAAGUAUUAUGUUACGCCGUUCGGAUCUGCACUUC,-0.922
CAAGUCCUGUGCUACACAUCGUAUGUACCGAAUCGGCCCCGGCCCCGGGGCCCCGGAAAGUAUUAUGUUACGCCGUUCGGAUCUGCACUU,-1.21
AAGUCCUGUGCUACACAUCGUAUGUACCGAAUCGGUUUUUGGAAAAAAAGGAAAGGAAAGUAUUAUGUUACGCCGUUCGGAUCUGCACUU,-1.39
UCCUGUGCUACACAUCGUAUGUACCGAAUCGGGGAAAGGGGAAAGGGGUUUUUUUGGGGAAAGUAUUAUGUUACGCCGUUCGGAUCUGCA,0.67
UCCGCGUGUGAAGUUUUUCUCGGCUGCAUCAUGGGUGCCACAUUCUUUUUGUUGUUUUCAGUGCUGCAAAAGCCCCAUAUCUGGCCAAGU,-0.872
UGGCCCUGGUGGCAUGCGGGGAGGAAAAGGUGGCCUCAUGGAUCGUGGUGGUCCCGGUGGAAUGUUCAGAGGUGGCCGUGGUGGAGACAG,0.121

# Series 3 — method: universal PBM; form: double-stranded DNA, one strand shown; medium: in vitro; concentration: 600 nM; direction: higher = stronger binding
# Target: Sal-like protein 4, full length isoform A (SALL4, Homo sapiens, UniProt Q9UJQ4, residues 1-1053)
# Chain of UniProt Q9UJQ4 (whole entry, looked up): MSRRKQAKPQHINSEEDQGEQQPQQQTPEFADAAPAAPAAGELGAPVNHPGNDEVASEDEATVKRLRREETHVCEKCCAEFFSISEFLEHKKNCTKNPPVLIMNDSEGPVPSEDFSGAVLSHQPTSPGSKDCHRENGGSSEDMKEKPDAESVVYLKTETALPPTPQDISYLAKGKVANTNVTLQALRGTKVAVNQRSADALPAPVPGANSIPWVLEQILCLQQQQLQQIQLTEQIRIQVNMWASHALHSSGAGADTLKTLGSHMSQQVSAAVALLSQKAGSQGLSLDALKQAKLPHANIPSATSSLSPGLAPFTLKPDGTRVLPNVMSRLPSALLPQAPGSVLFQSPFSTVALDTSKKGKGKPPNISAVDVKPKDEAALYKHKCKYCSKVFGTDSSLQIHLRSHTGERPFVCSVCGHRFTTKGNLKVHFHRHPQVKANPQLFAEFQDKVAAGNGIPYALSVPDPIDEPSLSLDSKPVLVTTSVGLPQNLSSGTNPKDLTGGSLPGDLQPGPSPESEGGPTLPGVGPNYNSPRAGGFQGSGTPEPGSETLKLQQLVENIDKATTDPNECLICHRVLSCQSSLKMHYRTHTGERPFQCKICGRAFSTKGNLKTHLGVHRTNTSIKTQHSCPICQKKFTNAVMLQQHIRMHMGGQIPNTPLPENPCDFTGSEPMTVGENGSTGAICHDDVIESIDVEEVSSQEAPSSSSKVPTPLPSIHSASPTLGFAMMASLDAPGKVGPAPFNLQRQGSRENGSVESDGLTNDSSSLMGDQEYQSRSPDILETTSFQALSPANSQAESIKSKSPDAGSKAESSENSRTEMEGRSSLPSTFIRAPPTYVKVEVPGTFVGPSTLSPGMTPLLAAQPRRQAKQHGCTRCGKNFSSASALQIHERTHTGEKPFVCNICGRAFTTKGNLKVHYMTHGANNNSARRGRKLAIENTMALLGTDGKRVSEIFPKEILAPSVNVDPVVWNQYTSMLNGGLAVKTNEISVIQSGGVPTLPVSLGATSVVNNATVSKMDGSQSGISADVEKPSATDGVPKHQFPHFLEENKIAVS
# Setting: 8-mer, flanks averaged, mean of replicates
Oligonucleotide,E-score
TCACTGGA,0.0236
CACTGGCC,-0.277
ACAATTCG,0.0897
TCCGAGAA,0.0442
GTACCATA,0.124
TTAAAGAA,0.3
AAGAGGGG,-0.113
GCCCACCC,-0.136
GATGAATC,0.0968
GCCTTGGA,-0.097
CTTCGGGA,-0.0735
AAGGCGTA,-0.0759
CTAAACTA,0.115
GGAATGAA,0.213
TTGGACAA,0.0917
CAATCACA,0.193
CCGTCATC,-0.171
CAGCCGTC,-0.334

# Series 4 — target: CCND2, cyclin fold, Cln2 fusion (human); method: yeast growth competition, sequencing; medium: yeast; setting: weak parent motif; reference: not given; direction: higher = stronger binding
# Starting sequence: CDKN1C docking peptide (human); TSACRSLFGPVDH; partner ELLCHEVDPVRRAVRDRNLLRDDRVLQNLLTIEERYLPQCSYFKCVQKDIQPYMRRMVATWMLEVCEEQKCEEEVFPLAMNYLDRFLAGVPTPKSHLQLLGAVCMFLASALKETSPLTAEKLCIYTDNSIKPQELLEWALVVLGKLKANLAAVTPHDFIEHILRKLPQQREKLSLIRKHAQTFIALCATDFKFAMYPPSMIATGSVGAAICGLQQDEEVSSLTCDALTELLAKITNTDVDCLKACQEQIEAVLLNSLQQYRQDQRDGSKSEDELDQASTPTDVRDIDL
Variant,normalised enrichment score
TSACRSLFGPVDA [H13A],0.25
TSACKSLLGPVDH [R5K F8L],-0.0539
TSACRSAFGPVDH [L7A],-0.0677
TSACASAFGPVDH [R5A L7A],-0.122
TSACRSLAGPVDH [F8A],0.235
TSACRSLLGPVDH [F8L],-0.0494
ASACRSLFGPVDH [T1A],0.273
TAACRSLFGPVDH [S2A],0.369
TSAARSLFGPVDH [C4A],0.122

# Series 5 — method: protein binding microarray; form: double-stranded DNA, one strand shown; medium: in vitro; concentration: not given; reference: not given; direction: higher = stronger binding
# Target: Histone acetyltransferase KAT6A, winged helix 1, GST fusion (KAT6A, Homo sapiens, UniProt Q92794, residues 1-85)
# Setting: 8-mer, flanks averaged, mean of 2 arrays, mostly near background
# Target sequence (chain): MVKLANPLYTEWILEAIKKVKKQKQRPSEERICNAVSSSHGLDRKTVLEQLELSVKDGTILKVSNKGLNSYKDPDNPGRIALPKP
Oligonucleotide,E-score
ATATAGAT,-0.153
CCGGTAGA,0.263
GCTCCGAA,0.0216
CGTGGCCC,0.135
CGGAGTAA,0.0686
CTCTTAGA,-0.14
AACGTGAA,-0.179
TCAATACA,-0.145
GGACTGCA,-0.235
CCGGACTA,0.202
CAAATTCG,-0.0385
AACAAGGT,-0.118
CTTCTCAC,-0.141
CATACGCG,0.275
GTTTTACA,-0.0741
GAAACGAA,-0.182
AGGATCAC,-0.171
ATAAGTTC,-0.12
CGCTATCA,0.264
CCTATCCC,-0.0891
GAACTAAA,-0.0877

# Series 6 — method: RNA Bind-n-Seq; form: RNA; medium: in vitro; concentration: not given; setting: RNA with constant flanks, ends assumed; reference: input RNA pool; direction: higher = stronger binding
# Target: RING finger protein unkempt homolog, zinc fingers 1-6, GST-SBP tag (UNK, Homo sapiens, UniProt Q9C0B0, residues 30-357)
# Chain of UniProt Q9C0B0 (30-357, looked up): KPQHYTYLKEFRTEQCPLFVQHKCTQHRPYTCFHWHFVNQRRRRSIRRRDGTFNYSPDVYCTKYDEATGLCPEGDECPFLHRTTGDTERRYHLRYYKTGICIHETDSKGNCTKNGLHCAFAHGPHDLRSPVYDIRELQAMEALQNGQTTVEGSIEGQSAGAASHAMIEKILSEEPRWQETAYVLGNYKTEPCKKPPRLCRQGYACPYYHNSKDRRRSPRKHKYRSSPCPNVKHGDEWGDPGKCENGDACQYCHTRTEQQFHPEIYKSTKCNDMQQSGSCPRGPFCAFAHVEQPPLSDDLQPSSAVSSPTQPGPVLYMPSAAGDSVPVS
# All sequences stand within: GGGAGUUCUACAGUCCGACGAUC … CAACAGAGGAUUGAGCAUCA
Oligonucleotide,bound/input enrichment [ratio]
UCUAAAAUUGUUCGUGUUAGAUCAGAUUUGCUUGAUGAGUUAAUUAAAUCAGGGCAGUUAUCCGGAGUGAAAUUUAUAGCAGAGCUUGGUGUCCCAUUGUCACAGGUUAAAAGCAUCUCA,0.325
AAUACAUUUGUUCCAAUGGGGAGCUUGGAAGAUGGCGUUCCCAGAAAGUAUUUUAAUAUCAACCGACCACAGCCAAAGCCUUAAAUCAAACCCACACACAACUGAAAAUUGCCUCCUCCA,0.407
GCAGGACGGGGAGGGACUGCGGCGGAGAUACCGGUCCCCGGGCAAAAGCAGGGACCGCGGUUCCGCUUCCAACGCGUGCUCUCUGGGCGGGGUGCGGCGGGGGAUGUGCCUGCCCAGUCC,0.112
AUUACAUUACAUGAAAUGGCAGAAACAGAUGAAGGAUGGUUGGAUGUUGUCCAGUCUUUAAUCCGAGUUAUUCCAUUGGAAGAUCCAUUGGGACCAGCUGUUAUAACCUUGUUACUAGAC,0.229
GAGGAUCCGGAACUGGCUAAGUCUUUUAUUAAGACAUUAUUUGGUGUUCUUUAUGAAGUGUACCGUUCCUCAGCAGGACCUGCGGUCAGACAUAAGUGCCUUAGAGCAAUUCUUAGGAUA,0.425
CUUUUGAUUUCUUUUUCUUUUUUUCUCUUCUUGUUUUUGUUUUUCUUUUUUGUUUGUUUUUUCCGCAUGCAAAUAUGUUGGUACGUUAUGUCCUGGUUUAAAAGGAUUAAAAAUUUAAAA,0.808
AAAGACAAGUGUGUCCUGUGUGGAGGACUAACCUUAGAGAGGAGGAGAUUCCACCUGGCCCCGCUUUAUGGCUGUCAAUUGUCUAUUUUGCCAUUUAUAAGCUGAAAGAAGGCACUAAAG,0.239
UCUGGUAUUACCCUCACCUGCAUUGGUUUUGUUUUUUGGGGUUUUUGUUGUUUGUUUGUUUUCCGAUUCACAGAACAUGAGAAUCCUUUUUGACAAGCCUUGGAUAGCUGGCUCUCUUCU,0.33
AUGGGCUUUCAUGUUAUCUAUAAGACACCUUGUGGUCUCUGCCUUCGGACAAUGCAGGAGACCGAACGCUACCUUUUCGAGACUGGCUGUGACUUCCUCUUCCUGGAGAUGUUCUGUUUG,0.357
CUGAGCCAGCUAGACCAGCGCUUUUCAGAGAAUUACUCUACCCAUAGCAGUCCUCUGGACCGUAUUUAUUACCACCGAGAGCUUCUCUGCUAUUCUCUGGAUGGACUUCGUGUAGAUCUA,0.196
AGAUGGUUCCAGAAAAACGAGCCUCAGCUGGCGAAUGCCUUCGACAUCCUUGGUUGAAUUCUCCGCAGAUUCUACAAAUAUAGCAUUCUGAGCUAGCAAAUUUCUCCCAGUACAUUGGAC,0.557

# Mixed results
Substance,target,test,test system,setting,how to read,quantity,value
"PhoQ, residues 284 288 289 292 302 303 SCCLKL","PhoP, residues 12 14 15 18 19 TQAIL (Escherichia coli, UniProt P23836)","Sort-seq, measured: YFP reporter",E. coli,"PhoQ-PhoP variant library, added: 10 µM Mg2+","reference: high Mg2+ state, higher = stronger signaling",fold induction,4.04

# Repeated from above (series 2):
Oligonucleotide,log2 enrichment
UCCGCGUGUGAAGUUUUUCUCGGCUGCAUCAUGGGUGCCACAUUCUUUUUGUUGUUUUCAGUGCUGCAAAAGCCCCAUAUCUGGCCAAGU,-0.872
AAGUCCUGUGCUACACAUCGUAUGUACCGAAUCGGUUUUUGGAAAAAAAGGAAAGGAAAGUAUUAUGUUACGCCGUUCGGAUCUGCACUU,-1.39
CAAGUCCUGUGCUACACAUCGUAUGUACCGAAUCGGCCCCGGCCCCGGGGCCCCGGAAAGUAUUAUGUUACGCCGUUCGGAUCUGCACUU,-1.21
GUCCUGUGCUACACAUCGUAUGUACCGAAUCGGGUUUUUGGGGUUUUUGGUUUUUGGGAAAGUAUUAUGUUACGCCGUUCGGAUCUGCAC,-0.694
UGGGAGGUGGAUUUUGUUUAUUUUUUUAGCUCAUUUCCAGGGGUGGGAAUUUUUUUUUAAUAUGUGUCAUGAAUGAAGUUGUUUUUGAAA,0.242
UGGCCCUGGUGGCAUGCGGGGAGGAAAAGGUGGCCUCAUGGAUCGUGGUGGUCCCGGUGGAAUGUUCAGAGGUGGCCGUGGUGGAGACAG,0.121
CUCAAGUCCUGUGCUACACAUCGUAUGUACCGAAUCGGGGAAGGAAGGAAGGGGAAAGUAUUAUGUUACGCCGUUCGGAUCUGCACUUCC,-0.261
AGUCCUGUGCUACACAUCGUAUGUACCGAAUCGGAAAAGGGGAAAAGGGAAAAGGGGAAAGUAUUAUGUUACGCCGUUCGGAUCUGCACU,-0.165
UUUCGGCUACCCCCAGUUCUUCUUUGCCAAAGCGUACACGUGAAGAGGAAGAGGAUAGCACCAUAGAAGCAUCAGACCAAGUCUCUGAUG,-1.49
UGGCCCUGGUGGCAUGCGGGGAGGAAGAGAUGGCCUCAUGGAUCGUGGUGGUCCCGGUGGAAUGUUCAGAGGUGGCCGUGGUGGAGACAG,0.135
UGGCCCUGGUGGCAUGCGGGGAGGAAGAGGUGGCCUCAUGUAUCGUGGUGGUCCCGGUGGAAUGUUCAGAGGUGGCCGUGGUGGAGACAG,0.0416
UCCUGUGCUACACAUCGUAUGUACCGAAUCGGGGAAAGGGGAAAGGGGUUUUUUUGGGGAAAGUAUUAUGUUACGCCGUUCGGAUCUGCA,0.67
CAAGUCCUGUGCUACACAUCGUAUGUACCGAAUCGGGAAAAGGAAAAGGAAAAGGAAAGUAUUAUGUUACGCCGUUCGGAUCUGCACUUC,-0.922
GUCCUGUGCUACACAUCGUAUGUACCGAAUCGGGGUUUUUGGGGUUUGGGGAAAGGGGAAAGUAUUAUGUUACGCCGUUCGGAUCUGCAC,0.775
